Published values collected from several papers.
Compare with care: the assays were run in different laboratories. “And” joins repeats or separate records; there may be more than shown. pIC50: −log10 of the molar value.
GBA2: Beta-glucosidase (GBA2, Homo sapiens, UniProt Q9HCG7)
Sequence of UniProt Q9HCG7 (whole entry, looked up): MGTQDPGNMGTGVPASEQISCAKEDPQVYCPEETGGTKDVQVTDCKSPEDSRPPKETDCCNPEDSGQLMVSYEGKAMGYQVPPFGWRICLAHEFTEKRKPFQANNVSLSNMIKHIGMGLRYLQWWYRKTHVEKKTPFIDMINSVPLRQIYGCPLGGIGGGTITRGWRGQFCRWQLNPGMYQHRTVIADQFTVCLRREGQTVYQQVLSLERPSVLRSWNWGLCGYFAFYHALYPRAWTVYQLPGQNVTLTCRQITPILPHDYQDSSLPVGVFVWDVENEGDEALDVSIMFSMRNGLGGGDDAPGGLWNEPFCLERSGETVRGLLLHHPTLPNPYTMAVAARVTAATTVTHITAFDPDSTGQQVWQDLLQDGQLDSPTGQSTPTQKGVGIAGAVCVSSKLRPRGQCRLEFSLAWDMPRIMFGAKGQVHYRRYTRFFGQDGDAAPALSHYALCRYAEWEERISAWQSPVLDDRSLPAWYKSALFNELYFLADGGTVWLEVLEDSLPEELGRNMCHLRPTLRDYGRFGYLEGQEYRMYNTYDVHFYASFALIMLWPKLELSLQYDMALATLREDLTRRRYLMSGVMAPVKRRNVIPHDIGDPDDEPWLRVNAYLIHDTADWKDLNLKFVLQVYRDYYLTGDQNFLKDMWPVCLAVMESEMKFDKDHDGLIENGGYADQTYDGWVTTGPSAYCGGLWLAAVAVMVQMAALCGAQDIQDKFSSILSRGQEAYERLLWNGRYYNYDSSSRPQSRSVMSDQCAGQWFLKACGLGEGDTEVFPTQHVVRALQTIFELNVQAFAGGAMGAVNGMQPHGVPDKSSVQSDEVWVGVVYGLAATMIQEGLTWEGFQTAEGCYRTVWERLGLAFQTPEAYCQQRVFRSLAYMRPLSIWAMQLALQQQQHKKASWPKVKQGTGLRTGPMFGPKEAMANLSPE

OC[C@@H]1[C@@H](O)[C@H](O)[C@@H](O)CN1CCCCCOCc1ccc(-c2ccc(C(F)(F)F)cc2)cc1 has a selectivity ratio of 25 (GBA2; inhibitor, 4MU-β-D-glucopyranoside; HEK293T homogenates overexpressing GBA2; baseline: GCS IC50 over GBA2 IC50).
For CC(C)c1ccc(N(C)c2ccc3c(c2)OCC[C@H]3CNc2cnccc2C(=O)O)cc1, the pIC50 was 7.40 (SNU761; cell viability, CellTiter-Glo; liver; 7 days).
CNS(=O)(=O)Nc1nccc(Cc2c(C)c3ccc(Oc4ncccc4F)cc3oc2=O)c1F gave a pIC50 of under 6.00 (BC-3; cell viability; 7 days).
CCN(C(=O)c1cc(F)ccc1Oc1nncnc1N1CCC2(C1)CN([C@H](CCCN(C)CCOC)C(C)C)C2)C(C)C has a GI50 of over 10000 nM (T24; cell growth or viability; 72 h).
For CO[C@@H]1[C@@H](OC(N)=O)[C@@H](O)[C@H](Oc2ccc3c(O)c(NC(=O)c4ccc(O)c(CC=C(C)C)c4)c(=O)oc3c2C)OC1(C)C, the colony survival was 79.2% (HCT-116 parental; 150 µM; baseline: untreated).
CN1CCCNC(=O)c2cccc(c2)C(=O)NCCCN(C)CCCNc2cccc3c2C(=O)c2cccc(c2C3=O)NCCC1 — result for “log2 fold change”: 2.25 (SAS; RNA-Seq, refers to: GADD45B mRNA; 5 µM, 6 h; baseline: untreated cells).
For Cc1ncsc1-c1ccc(C(C)NC(=O)C2CC(O)CN2C(=O)C(NC(=O)CCCCCCCCCCN2CCCC(Nc3ncc(Cl)c(Nc4ccccc4S(=O)(=O)C(C)C)n3)C2)C(C)(C)C)cc1 (centres unmarked), “log2 fold change” read -1.29 (22Rv1; RNA-seq, refers to: ZNF75D mRNA; concentration not given; baseline: DMSO).
OC[C@@H]1[C@@H](O)[C@H](O)[C@@H](O)CN1CCCCCOCc1ccsc1 gave a selectivity ratio of 88 (GBA2; inhibitor, 4MU-β-D-glucopyranoside; HEK293T homogenates overexpressing GBA2; baseline: GCS IC50 over GBA2 IC50).
Under “fold change in expression”, Cn1ncc2cc(-c3cncc(Cl)c3N3CCC4(CCNC4=O)CC3)ccc21 is recorded as -1.43 (LS174T; microarray, refers to: SLC6A4; concentration not given, 4 h, gene set SERT; baseline: untreated cells).
For CCN(CC)CC(=O)Nc1cccc(-n2cc(-c3ccc4ccc(-c5cn(-c6cccc(NC(=O)CN(CC)CC)c6)nn5)cc4c3)nn2)c1, the fold regulation was 1.06 (RCC4; PCR angiogenesis array, refers to: MMP14; 5 x IC50, 2 h, normoxia; baseline: untreated).
The colony survival of COc1ccccc1-c1ccncc1C(=O)Nc1nnc(OCc2ccc(Cl)cc2)s1 is reported as 57.1% and 53.2% and 51.9% (MDA-MB-436 BRCA1-mutant; 0.75 µM; baseline: vehicle control).

Excerpt of the above:
For Cc1ncsc1-c1ccc(C(C)NC(=O)C2CC(O)CN2C(=O)C(NC(=O)CCCCCCCCCCN2CCCC(Nc3ncc(Cl)c(Nc4ccccc4S(=O)(=O)C(C)C)n3)C2)C(C)(C)C)cc1 (centres unmarked), “log2 fold change” read -1.29 (22Rv1; RNA-seq, refers to: ZNF75D mRNA; concentration not given; baseline: DMSO).
